{"data": "Experimental data pooled from the literature", "note": "± gives the spread as reported."}
{"Substance": "MTVCNASQRQAHAQATAVSL", "target or system": "H1299 lung large cell carcinoma", "test": "phage binding output/input", "system": "peptide", "how to read": "baseline: control phage", "endpoint": "selectivity ratio", "value": "11.3 ± 3.3"}
{"Substance": "epoetin alfa", "target or system": "UT7/EPO", "test": "microarray, measured: EPAS1 mRNA (probe set 242868_at)", "conditions": "5 U/mL, 90 min", "how to read": "baseline: vehicle", "endpoint": "mRNA level", "value": "5.6 fold"}
{"Substance": "GSGAGHETIV", "target or system": "human MAGI1-3/6 PDZ construct (MBP fusion)", "test": "automated holdup", "system": "peptide, purified PDZ protein", "conditions": "concentration not given, unit not given", "how to read": "baseline: biotin control resin, higher = stronger binding", "endpoint": "binding intensity", "value": 0.311}
{"Substance": "GLGQWIPQA", "target or system": "Jurkat T cells expressing 1G4 TCR", "test": "NFAT-eGFP reporter, flow cytometry", "system": "peptide", "conditions": "concentration not given, HLA-A*02:01 NY-ESO system", "endpoint": "reporter activation", "value": "0.076%"}
{"Substance": "KPGKGSETVV", "target or system": "human MAGI1-3/6 PDZ construct (MBP fusion)", "test": "automated holdup", "system": "peptide, purified PDZ protein", "conditions": "concentration not given, unit not given", "how to read": "baseline: biotin control resin, higher = stronger binding", "endpoint": "binding intensity", "value": 0.0381}
{"Substance": "bis(2,4-dimethylpyridine)dichloroplatinum(II)", "target or system": "BEAS-2B", "test": "cell viability, MTT", "conditions": "24 h", "endpoint": "IC50", "value": "9.2 µM"}
{"Substance": "ALFQWVSQA", "target or system": "Jurkat T cells expressing 1G4 TCR", "test": "NFAT-eGFP reporter, fluorescence microscopy", "system": "peptide", "conditions": "concentration not given, HLA-A*02:01 NY-ESO system", "endpoint": "reporter activation", "value": "2.74%"}
{"Substance": "maraviroc", "target or system": "HBMEC", "test": "ECIS", "conditions": "2.5 µM", "endpoint": "TEER", "value": "no effect"}
{"Substance": "TLLQWVTQI", "target or system": "Jurkat T cells expressing 1G4 TCR", "test": "NFAT-eGFP reporter, flow cytometry", "system": "peptide", "conditions": "concentration not given, HLA-A*02:01 NY-ESO system", "endpoint": "reporter activation", "value": "78.8%"}
{"Substance": "Peginesatide", "target or system": "UT7/EPO", "test": "RT-qPCR, measured: SOCS3", "conditions": "concentration not given, 90 min, normalized to HPRT1", "how to read": "baseline: vehicle", "endpoint": "mRNA level", "value": "26.8 fold"}
{"Substance": "Ac-LRKLRKRLLRDWLKAFYDKVAEKLKEAF-NH2 (N-acetyl, C-amide)", "target or system": "HepG2", "system": "peptide", "conditions": "20 µg/mL, 18 h", "how to read": "baseline: untreated cells", "endpoint": "preβ-HDL apoA-I fold increase", "value": "2.5 fold"}
{"note": "A few entries again:"}
{"Substance": "GLGQWIPQA", "target or system": "Jurkat T cells expressing 1G4 TCR", "test": "NFAT-eGFP reporter, flow cytometry", "system": "peptide", "conditions": "concentration not given, HLA-A*02:01 NY-ESO system", "endpoint": "reporter activation", "value": "0.076%"}
